Measurements of several laboratories.
Numbered parts are unrelated; each lists some results of a single study.

Block 1 — technique: protein binding microarray; molecule type: double-stranded DNA, one strand shown; sample: in vitro; tested at: not given; reference: not given; reading: higher = stronger binding; quantity: E-score
Target: Histone acetyltransferase KAT6A, both winged helices, GST fusion (KAT6A, Homo sapiens, UniProt Q92794, residues 1-181)
Setting: 8-mer, flanks averaged, mean of 2 arrays, mostly near background
Target sequence (chain): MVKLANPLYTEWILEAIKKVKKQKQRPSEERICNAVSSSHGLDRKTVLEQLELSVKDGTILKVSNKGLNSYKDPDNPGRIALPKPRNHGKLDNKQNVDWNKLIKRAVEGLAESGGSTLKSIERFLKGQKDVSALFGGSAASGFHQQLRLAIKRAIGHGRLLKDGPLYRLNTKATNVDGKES
CGAGCAAA: -0.0876
GTGCTGTA: -0.0522
AGGTATAG: -0.235
AACAGCTG: -0.0591
TAATTGCA: -0.0323

Block 2 — technique: RNA Bind-n-Seq; molecule type: RNA; sample: in vitro; tested at: not given; reference: input RNA pool; reading: higher = stronger binding; quantity: bound/input enrichment
Target: RING finger protein unkempt homolog, zinc fingers 1-6, GST-SBP tag (UNK, Homo sapiens, UniProt Q9C0B0, residues 30-357)
Chain of UniProt Q9C0B0 (30-357, looked up): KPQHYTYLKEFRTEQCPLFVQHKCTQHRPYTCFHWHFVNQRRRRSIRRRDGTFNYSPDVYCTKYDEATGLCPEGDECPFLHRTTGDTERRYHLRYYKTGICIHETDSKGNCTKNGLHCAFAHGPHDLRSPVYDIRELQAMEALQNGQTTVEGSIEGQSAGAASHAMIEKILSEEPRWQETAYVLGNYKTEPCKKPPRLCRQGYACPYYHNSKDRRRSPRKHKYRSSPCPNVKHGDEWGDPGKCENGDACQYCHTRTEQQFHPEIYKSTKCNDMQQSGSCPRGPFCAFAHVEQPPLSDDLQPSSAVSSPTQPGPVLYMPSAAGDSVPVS
Setting: RNA with constant flanks, human and mouse sites, ends assumed
Constant ends, left off below: GGGAGUUCUACAGUCCGACGAUC … CAACAGAGGAUUGAGCAUCA
AAACAAAUAGGUAUAAAUAAAAAAUCGGUAAAAUCUGCAAAAGAUGGCACAUCUCCAGAAGAAGAAAUUGAAAUAGAAAGACAAAAGGCUGAAAUGGCUUUGCUUAUGAUGGAUGAGGAC: 31 ratio
ACCUCCACCUCCAAGUUCUUAAUGAAUGUUAUAACUAUUGAAGAUUAUAAGAGCACAUACUGGCCAAAAUUGGAUGGUGCCAUAGAUCAACUUUUAACUCAGAGUCCUGGUGACUAUAUC: 0.997 ratio
UGUGGCGAUUCAGAUAAAGGAUUUGUUGUUAUUAAUCAAAAGGGAAUUGACCCCUUUUCCUUAGAUGCUCUUUCAAAAGAAGGCAUAGUUGCUCUGCGCAGAGCUAAAAGGAGAAAUAUG: 0.292 ratio
GACGUAUUUUCUGUGUAAUUCUCUUGUUCUUAUACUACCUGCAUUAUCUUUAUGUCACUGUAGCAAAUGCCUAUCAUAAGUCAACUCUCAGGAGCCAUAAUGGGACAAGCUAAUAACUAG: 0.146 ratio
UGUAGACAGGCUUGGGGGAACACCCCUCCCCCCUGCUCCCUUCCCCUGGCCUGGCCCUCUCGUCCUCAGGUGUACACGUGUUUGGCCUGUGUGCCACGGCUCUGGUGACAGAUGUCAUCC: 0.196 ratio

Block 3 — technique: aptamer microarray, sandwich; molecule type: DNA with 2'F-ANA; sample: in vitro; tested at: 200 nM; with: Cy3 exosite-II aptamer, 400 nM; reading: higher = stronger binding; quantity: mean fluorescence intensity; oligonucleotide: GGTTGGTGTGGTTGG
Target: Prothrombin, mature alpha-thrombin (F2, Homo sapiens, UniProt P00734)
Setting: whole 15-mer aptamer, many near background
2'F-ANA at 3 4 7 10 12 13 14: 214 a.u.
2'F-ANA at 5 6 7 10 12 15: 50.5 a.u.
2'F-ANA at 4 6 11: 220 a.u.
2'F-ANA at 4 6 8 15: 338 a.u.
2'F-ANA at 1 5 7 8 10 13 14 15: 56 a.u.

Mixed results
PhoQ, residues 284 288 289 292 302 303 AQGLTV
fold induction (PhoP, residues 12 14 15 18 19 LHSVW (Escherichia coli, UniProt P23836); Sort-seq, item: YFP reporter; E. coli; PhoQ-PhoP variant library, with: 10 µM Mg2+; reference: high Mg2+ state, higher = stronger signaling): 7.97
